Measured values of several laboratories.
A part holds a random share of what one study measured.

Study 1 — method: protein binding microarray; molecule type: double-stranded DNA, one strand shown; matrix: in vitro; concentration: not given; reference: not given; direction: higher = stronger binding
Target: Histone acetyltransferase KAT6A, winged helix 1, GST fusion (KAT6A, Homo sapiens, UniProt Q92794, residues 1-85)
Setting: 8-mer, flanks averaged, mean of 2 arrays, mostly near background
Target sequence (chain): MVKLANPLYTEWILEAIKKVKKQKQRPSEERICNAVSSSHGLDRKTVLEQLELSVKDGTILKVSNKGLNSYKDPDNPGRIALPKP
| Sequence | E-score |
| --- | --- |
| CGAGCGCC | 0.311 |
| GCCGCCCC | 0.369 |
| TAGTACCA | -0.0974 |
| ACGTGCTC | -0.115 |
| AGGGTGCA | -0.282 |

Study 2 — method: RNA Bind-n-Seq; molecule type: RNA; matrix: in vitro; concentration: 365 nM; reference: no-protein control; direction: higher = stronger binding
Target: RNA binding protein fox-1 homolog 2, RRM domain, GST-SBP tag (RBFOX2, Homo sapiens, UniProt O43251-10, residues 100-194)
Setting: natural RNA segment, single round, ends assumed
Construct (chain): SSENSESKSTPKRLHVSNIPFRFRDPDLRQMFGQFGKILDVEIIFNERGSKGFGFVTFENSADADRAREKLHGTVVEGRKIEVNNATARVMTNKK
| Sequence | RBNS enrichment (R) |
| --- | --- |
| GGGAGUUCUACAGUCCGACGAUCUUCAGUUUUCUGUUGGGAUCAGAGUGAGGAUACUUCCAUAUGGGUGAUAGCAGCCAUGCCCCUGGGAGUCAACUUCAAGGAUCUGGGACAUUUUGGUGUGCCCAUUCCUUUGGAAUUCUCGGGUGCCAA | 0.237 |
| GGGAGUUCUACAGUCCGACGAUCUCUAUUAAUACAUCUAAAUUUUCUAGUAUAUCCUGACAUUUUCCAUUCCUGCUCUGAAGUCACUUUUAGUUUUGUGUUUUAGUCAGAUAGUACCACUAAUUUUUGUAAUUUGGAAUUCUCGGGUGCCAA | 0.453 |
| GGGAGUUCUACAGUCCGACGAUCCACUUUGUGCCAACAGAGGAUGGACGACACCUUUCCCUGUACCCACUGCAGAGGAAGAACCCUGGGCACAGCAGCUUUGUCCUUGGCUACAAACUGUUACAACGUCACACUGGAAUUCUCGGGUGCCAA | 0.456 |
| GGGAGUUCUACAGUCCGACGAUCUGUGUGAGGGGAAUAAUGUGGAAAGCUGAGGUCUAAUUGUGGUGACGUUAGCUGUCCCAGGCCACAAGCCAUACCCAACCUUGACCUUCCUGGGUCACAAUGAUCAGUUGUGGAAUUCUCGGGUGCCAA | 0.236 |

Study 3 — method: RNA Bind-n-Seq; molecule type: RNA; matrix: in vitro; concentration: not given; reference: input RNA pool; direction: higher = stronger binding
Target: RING finger protein unkempt homolog, zinc fingers 1-6, GST-SBP tag (UNK, Homo sapiens, UniProt Q9C0B0, residues 30-357)
Chain of UniProt Q9C0B0 (30-357, looked up): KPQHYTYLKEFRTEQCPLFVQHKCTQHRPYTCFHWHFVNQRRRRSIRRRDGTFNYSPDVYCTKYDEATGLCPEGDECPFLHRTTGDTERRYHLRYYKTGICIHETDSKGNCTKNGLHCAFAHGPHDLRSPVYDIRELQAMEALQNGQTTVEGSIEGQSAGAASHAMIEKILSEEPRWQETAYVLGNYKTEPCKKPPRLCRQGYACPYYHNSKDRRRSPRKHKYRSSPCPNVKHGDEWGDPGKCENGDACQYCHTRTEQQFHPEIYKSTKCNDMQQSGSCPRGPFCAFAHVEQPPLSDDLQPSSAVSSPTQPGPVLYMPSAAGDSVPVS
Setting: RNA with constant flanks, human and mouse sites, ends assumed
| Sequence | bound/input enrichment |
| --- | --- |
| GGGAGUUCUACAGUCCGACGAUCGCUGCUGAUUGUGUUCUAGGGGACGGAGUAGGGGAAGACGUUUGCUCUCCCGGAACAGCCUAUCUCAUUCCUUUCUUUCGAUUACCCGUGGCGCGGAGAGUCAGGGCGGCGGCUGCGGCACAACAGAGGAUUGAGCAUCA | 0.326 ratio |
| GGGAGUUCUACAGUCCGACGAUCAAGAUUUUAGAAGAAUUUAGGAAAACACAACAGACAUCCCCUGACAAGGUGGAUUAUGAAUAUAGUGAACUACUCUUAUAUCAGAAUCAAGUUCUUCGGGAAGCAGGUCUCUAUAGAGAACAACAGAGGAUUGAGCAUCA | 1.56 ratio |
| GGGAGUUCUACAGUCCGACGAUCUACCAAAUAACUUUAGAGCUCACCCACUUCAGUUGGAGCAAUCCAGUGACCCUUCUAACAGUAUUGAUGGCCCAGAUCAUCUAAGAUCUGCUUCAUCGUUACAUGAAACAAAGAAAGGAACAACAGAGGAUUGAGCAUCA | 0.153 ratio |

Other studies, line by line
| Substance | target | assay | system | setting | how to read | endpoint | value |
| --- | --- | --- | --- | --- | --- | --- | --- |
| PhoQ, residues 284 288 289 292 302 303 TLASMF | PhoP, residues 12 14 15 18 19 LWHCS (Escherichia coli, UniProt P23836) | Sort-seq, item: YFP reporter | E. coli | PhoQ-PhoP variant library, added: 10 µM Mg2+ | reference: high Mg2+ state, higher = stronger signaling | fold induction | 4.15 |

Repeated from above (study 1):
| Sequence | E-score |
| --- | --- |
| ACGTGCTC | -0.115 |
| AGGGTGCA | -0.282 |
